Results gathered from unrelated publications.
± gives the spread as reported.

| SMILES | test | system | setting | half-life |
| --- | --- | --- | --- | --- |
| C=CC(=O)Nc1cc(Nc2ncc(C(=O)OC(C)C)c(-c3cn(C)c4ccccc34)n2)c(OC)cc1N(C)CCN(C)C | – | human, plasma | oral, 160 mg, arithmetic mean, alone | 27.6 h |
| NS(=O)(=O)OC[C@@H]1C[C@@H](n2ccc3c(N[C@H]4CCc5ccccc54)ncnc32)C[C@@H]1O | – | human | iv, 8 mg/m^2 single dose, day 8, mean, added: fluconazole | 11.7 h |
| Nc1ccc(-c2nc([C@H]3CCc4cc(-c5cc(Cl)ccc5-n5cnnn5)cc(=O)n43)c(F)[nH]2)c(F)n1 | – | human, plasma | oral, 80 mg, single dose, fed | 18.5 h |
| C=CC(=O)N1CCC([C@@H]2CCNc3c(C(N)=O)c(-c4ccc(Oc5ccccc5)cc4)nn32)CC1 | – | human | oral, 160 mg, single dose, mean | 5.3 h |
| CCCC[C@H](NC(C)=O)C(=O)N[C@H]1CCC(=O)NC[C@@H](C(=O)N[C@@H](Cc2c[nH]c3ccccc23)C(N)=O)NC(=O)[C@H](CCCNC(=N)N)NC(=O)[C@@H](Cc2ccccc2)NC(=O)[C@H](Cc2c[nH]cn2)NC1=O | – | healthy human, both sexes, plasma | subcutaneous, 3.0 mg once daily, day 7, median | 11.4 h |
| O=C(CCCCCCC(=O)Nc1ccccc1)NO | – | human, serum | oral, 600 mg twice daily | 1.5 h |
| CCn1c(=O)c2c(nc(/C=C/c3ccc(OC)c(OC)c3)n2C)n(CC)c1=O | – | healthy human, plasma | oral, 40 mg single dose, arithmetic mean, added: rifampin 600 mg/day steady state | 31.5 h |
| Cc1cccc(C)c1N(CC(=O)Nc1ccc(-c2ncon2)cc1)C(=O)C1CCS(=O)(=O)CC1 | – | human male, plasma | oral, 1200 mg single dose, geometric mean, alone | 7.2 h |
| CS(=O)(=O)n1cc2c(n1)CN([C@H]1CO[C@H](c3cc(F)ccc3F)[C@@H](N)C1)C2 | – | healthy male human, plasma | oral, 100 mg single, fasted, geometric mean | 42.6 h |
| CO[C@H]1C[C@@H]2CC[C@@H](C)[C@@](O)(O2)C(=O)C(=O)N2CCCC[C@H]2C(=O)O[C@H]([C@H](C)C[C@@H]2CC[C@@H](OCCO)[C@H](OC)C2)CC(=O)[C@H](C)/C=C(\C)[C@@H](O)[C@@H](OC)C(=O)[C@H](C)C[C@H](C)/C=C/C=C/C=C/1C | – | healthy adult human, whole blood | 0.75 mg single dose, harmonic mean, added: ritonavir-containing 3D regimen | 118 h |
| N#C[C@@H]1C[C@@H]2C[C@@H]2N1C(=O)[C@@H](N)C12CC3CC(CC(O)(C3)C1)C2 | – | healthy human subjects, plasma | oral, 10 mg, day 10, mean, added: diltiazem extended-release 360 mg | 3.3 h |
| CCCCC1(CCCC)CN(c2ccccc2)c2cc(SC)c(OCC(=O)N[C@@H](C(=O)NCC(=O)O)c3ccccc3)cc2S(=O)(=O)C1 | LC-MS/MS | human, plasma | oral, 2.5 mg, single dose, before breakfast | 1.62 h |
| O=C(c1cccnc1-c1ccncc1)N1CCC(O)(Cc2ccccc2)CC1 | – | healthy human, plasma | oral, 300 mg once daily, day 1, arithmetic mean | 4.44 h |
| CCOc1ccc(Cc2cc([C@@H]3S[C@H](CO)[C@@H](O)[C@H](O)[C@H]3O)c(OC)cc2C)cc1 | – | human, plasma | oral, 10 mg/day, day 1, multiple dose before breakfast | 9.15 ± 0.746 h |
| Cc1ccsc1C(=O)Nc1cc(CN2CCN(C(=O)CO)CC2)ccc1/C=C/c1n[nH]c2ccccc12 | – | human patients, plasma | oral, 50 mg/day, day 28 | 13 ± 4.18 h |
| Cc1ccc(NC(=O)c2ccc(CN3CCN(C)CC3)cc2)cc1Nc1nccc(-c2cncc(-c3oncc3C)c2)n1 | – | older healthy human adults, plasma | oral, 25.0 mg single dose, fed, mean | 25.9 h |
| CN1C(=O)[C@@H](NC(=O)c2nnc(Cc3ccccc3)[nH]2)COc2ccccc21 | – | human male, plasma | oral, 60 mg twice daily, day 14 | 2.19 h |

| SMILES | test | system | setting | half-life |
| --- | --- | --- | --- | --- |
| CN(CCOc1ccc(CC2SC(=O)NC2=O)cc1)c1ccccn1 (stereo not drawn) | – | human, both sexes, plasma | oral, 4 mg, day 3, mean, added: SCY-078 750 mg | 4.6 h |
| C[C@H](N)C(=O)N1C[C@H](CCCB(O)O)[C@](N)(C(=O)O)C1 | – | human, plasma | oral, 100 mg twice daily, cycle 1 day 15 | 6 ± 2.2 h |
| CC(=O)c1c(C)c2cnc(Nc3ccc(N4CCNCC4)cn3)nc2n(C2CCCC2)c1=O | – | human | oral, 75 mg/m^2 single dose, day 1 | 16.6 ± 9 h |
| CNC(=O)c1ccccc1Sc1ccc2c(/C=C/c3ccccn3)n[nH]c2c1 | – | human patients, plasma | oral, steady state, without chemotherapy | 2.8 h |
| CC(C)(/C=C(\C#N)C(=O)N1CCC[C@@H](n2nc(-c3ccc(Oc4ccccc4)cc3F)c3c(N)ncnc32)C1)N1CCN(C2COC2)CC1 | – | human, plasma | oral, 100 mg single dose, median | 1.6 h |
| COc1ccc2[nH]c([S+]([O-])Cc3ncc(C)c(OC)c3C)nc2c1 (stereo not drawn) | – | healthy male humans, plasma | oral, at end of metamizole treatment | 0.75 h |
| CS(=O)(=O)CCNCc1ccc(-c2ccc3ncnc(Nc4ccc(OCc5cccc(F)c5)c(Cl)c4)c3c2)o1 | – | human, plasma | oral, single dose | 10.3 h |
| Cc1ccc(NC(=O)c2ccc(CN3CCNCC3)cc2)cc1Nc1nccc(-c2cccnc2)n1 | – | human, plasma | oral, 400 mg imatinib first dose, day 1 of cycle 1, metabolite of imatinib alone, mean | 14.4 h |
| CC(C)(C)OC[C@@H]1C(=O)NCCN1C(=O)C[C@H](N)Cc1cc(F)c(F)cc1F | – | human | 10 mg once daily, day 10, steady state | 35.7 ± 9 h |
| Cc1[nH]c(/C=C2\C(=O)Nc3ccccc32)c(C)c1CCC(=O)O | – | human patients | oral, 400 mg/m^2 twice daily, after meal, dose 55 | 2.62 ± 0.441 h |
| CO[C@H]1C[C@@H]2CC[C@@H](C)[C@@](O)(O2)C(=O)C(=O)N2CCCC[C@H]2C(=O)O[C@H]([C@H](C)C[C@@H]2CC[C@@H](O)[C@H](OC)C2)CC(=O)[C@H](C)/C=C(\C)[C@@H](O)[C@@H](OC)C(=O)[C@H](C)C[C@H](C)/C=C/C=C/C=C/1C | – | human, whole blood | oral, 16 mg, without ketoconazole | 25 h |
| COC(=O)C(c1ccccc1Cl)N1CCC(S)C(=CC(=O)O)C1 (stereo not drawn) | – | human patients, CYP3A4 wt/wt, plasma | 75 mg clopidogrel daily, day 7, median | 0.65 h |
| CC(C)[C@H](N)C(=O)NCCCS(=O)(=O)O | – | human, both sexes, plasma | oral, 300 mg capsule | 0.81 ± 0.13 h |
| CNC(=O)c1ccc(-c2cnc3ncc(Cc4ccc5ncccc5c4)n3n2)cc1F | – | healthy human subjects, plasma | oral, 200 mg, geometric mean, alone | 8.29 h |
| N[C@@H](Cc1ccc(O)c(O)c1)C(=O)O | – | human, plasma | inhalation, range and mean | 0.567 to 1.55 h |
| CCN1CCN(Cc2ccc(Nc3ncc(F)c(-c4cc(F)c5nc(C)n(C(C)C)c5c4)n3)nc2)CC1 | – | human patients, plasma | oral, 150 mg, single dose, geometric mean | 17.5 h |
